Assay results from different studies.
Numbered parts are unrelated; each lists some results of a single study.
UniProt Q8WTQ7, sequence (whole entry, looked up): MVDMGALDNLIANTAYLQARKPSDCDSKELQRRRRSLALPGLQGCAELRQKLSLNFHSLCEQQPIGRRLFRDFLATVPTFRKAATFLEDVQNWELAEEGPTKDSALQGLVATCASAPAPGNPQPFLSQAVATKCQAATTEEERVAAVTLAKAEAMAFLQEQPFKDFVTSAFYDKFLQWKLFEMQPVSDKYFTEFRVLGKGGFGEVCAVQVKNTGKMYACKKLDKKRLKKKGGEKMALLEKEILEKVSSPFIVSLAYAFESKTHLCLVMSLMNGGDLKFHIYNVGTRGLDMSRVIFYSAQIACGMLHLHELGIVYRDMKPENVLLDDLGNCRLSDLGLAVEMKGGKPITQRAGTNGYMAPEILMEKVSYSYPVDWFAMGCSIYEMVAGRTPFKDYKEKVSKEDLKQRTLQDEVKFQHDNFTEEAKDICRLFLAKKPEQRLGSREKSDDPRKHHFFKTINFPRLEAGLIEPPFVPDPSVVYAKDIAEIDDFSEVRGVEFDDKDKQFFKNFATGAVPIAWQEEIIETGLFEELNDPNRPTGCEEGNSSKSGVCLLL
UniProt O15146, sequence (whole entry, looked up): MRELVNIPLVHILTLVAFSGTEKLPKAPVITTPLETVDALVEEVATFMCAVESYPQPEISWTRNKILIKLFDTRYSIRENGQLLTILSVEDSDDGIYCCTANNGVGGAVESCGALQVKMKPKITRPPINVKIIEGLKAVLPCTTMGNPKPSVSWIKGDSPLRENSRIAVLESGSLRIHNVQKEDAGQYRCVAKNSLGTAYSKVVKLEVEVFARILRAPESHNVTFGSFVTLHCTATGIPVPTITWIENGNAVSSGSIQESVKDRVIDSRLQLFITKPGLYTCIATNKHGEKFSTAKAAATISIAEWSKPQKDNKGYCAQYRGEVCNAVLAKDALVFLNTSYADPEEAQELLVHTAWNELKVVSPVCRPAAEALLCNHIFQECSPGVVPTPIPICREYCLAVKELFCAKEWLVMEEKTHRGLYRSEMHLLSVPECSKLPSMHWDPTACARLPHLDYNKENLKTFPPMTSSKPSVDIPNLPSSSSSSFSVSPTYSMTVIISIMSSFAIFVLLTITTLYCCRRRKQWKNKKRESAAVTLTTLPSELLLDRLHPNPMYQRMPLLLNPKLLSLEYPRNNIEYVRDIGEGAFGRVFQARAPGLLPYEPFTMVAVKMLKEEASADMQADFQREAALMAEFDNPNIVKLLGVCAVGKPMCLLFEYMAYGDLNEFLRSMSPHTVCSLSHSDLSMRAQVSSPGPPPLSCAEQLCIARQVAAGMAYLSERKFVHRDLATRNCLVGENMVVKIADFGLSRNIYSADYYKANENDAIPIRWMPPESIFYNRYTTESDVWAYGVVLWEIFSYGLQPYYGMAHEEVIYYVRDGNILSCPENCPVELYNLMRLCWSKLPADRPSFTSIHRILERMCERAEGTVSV
UniProt Q6P2M8, sequence (whole entry, looked up): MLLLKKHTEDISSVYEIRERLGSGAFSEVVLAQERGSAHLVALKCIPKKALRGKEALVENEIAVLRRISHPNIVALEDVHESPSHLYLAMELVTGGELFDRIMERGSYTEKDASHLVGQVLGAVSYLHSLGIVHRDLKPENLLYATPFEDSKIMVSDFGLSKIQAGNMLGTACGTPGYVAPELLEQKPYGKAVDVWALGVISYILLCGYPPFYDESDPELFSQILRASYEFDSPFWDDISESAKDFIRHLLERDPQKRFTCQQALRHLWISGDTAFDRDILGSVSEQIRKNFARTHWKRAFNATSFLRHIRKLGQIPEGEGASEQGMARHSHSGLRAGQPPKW
UniProt P51617, sequence (whole entry, looked up): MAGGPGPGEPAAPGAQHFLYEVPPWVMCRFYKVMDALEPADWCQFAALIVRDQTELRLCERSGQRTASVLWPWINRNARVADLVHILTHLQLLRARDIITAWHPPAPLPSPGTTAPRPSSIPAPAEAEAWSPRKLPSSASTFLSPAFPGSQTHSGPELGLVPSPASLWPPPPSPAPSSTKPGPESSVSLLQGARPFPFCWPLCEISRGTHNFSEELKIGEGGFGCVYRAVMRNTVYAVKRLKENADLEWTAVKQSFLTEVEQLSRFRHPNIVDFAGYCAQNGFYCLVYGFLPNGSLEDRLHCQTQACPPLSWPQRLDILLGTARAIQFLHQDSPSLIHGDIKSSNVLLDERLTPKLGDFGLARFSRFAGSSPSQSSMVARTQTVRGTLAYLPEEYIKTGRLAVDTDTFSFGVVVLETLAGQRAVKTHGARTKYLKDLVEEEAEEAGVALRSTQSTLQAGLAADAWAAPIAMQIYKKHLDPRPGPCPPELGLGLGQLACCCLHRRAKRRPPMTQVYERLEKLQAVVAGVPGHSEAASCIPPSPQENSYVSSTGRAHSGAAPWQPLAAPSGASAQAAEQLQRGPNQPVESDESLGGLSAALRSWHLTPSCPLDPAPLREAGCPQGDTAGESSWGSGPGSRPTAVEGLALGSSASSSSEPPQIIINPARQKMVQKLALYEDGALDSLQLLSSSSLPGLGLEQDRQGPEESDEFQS
UniProt P07333, sequence (whole entry, looked up): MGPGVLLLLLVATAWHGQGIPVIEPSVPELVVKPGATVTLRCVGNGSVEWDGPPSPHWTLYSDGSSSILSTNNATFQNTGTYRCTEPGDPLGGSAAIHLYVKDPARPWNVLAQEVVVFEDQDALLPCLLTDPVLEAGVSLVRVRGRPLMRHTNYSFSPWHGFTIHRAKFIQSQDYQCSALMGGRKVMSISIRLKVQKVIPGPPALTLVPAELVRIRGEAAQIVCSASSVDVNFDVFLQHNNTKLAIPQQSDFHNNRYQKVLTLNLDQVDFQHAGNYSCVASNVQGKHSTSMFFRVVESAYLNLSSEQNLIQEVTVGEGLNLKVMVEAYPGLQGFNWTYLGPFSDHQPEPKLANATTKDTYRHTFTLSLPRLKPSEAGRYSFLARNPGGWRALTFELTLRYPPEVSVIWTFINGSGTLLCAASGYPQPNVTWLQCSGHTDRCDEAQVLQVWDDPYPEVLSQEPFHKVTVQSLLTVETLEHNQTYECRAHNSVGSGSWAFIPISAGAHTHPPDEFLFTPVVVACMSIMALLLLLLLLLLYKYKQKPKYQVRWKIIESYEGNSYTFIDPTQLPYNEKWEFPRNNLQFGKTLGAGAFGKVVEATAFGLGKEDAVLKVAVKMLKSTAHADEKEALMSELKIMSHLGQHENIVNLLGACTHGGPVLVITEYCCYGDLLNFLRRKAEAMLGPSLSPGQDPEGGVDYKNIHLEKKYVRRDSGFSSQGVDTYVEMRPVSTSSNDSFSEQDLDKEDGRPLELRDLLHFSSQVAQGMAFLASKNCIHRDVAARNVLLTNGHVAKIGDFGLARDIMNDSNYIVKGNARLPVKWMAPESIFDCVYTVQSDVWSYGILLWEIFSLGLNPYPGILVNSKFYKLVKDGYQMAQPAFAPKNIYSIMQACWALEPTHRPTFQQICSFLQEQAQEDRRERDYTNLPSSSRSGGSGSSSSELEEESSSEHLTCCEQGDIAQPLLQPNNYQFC
UniProt Q96Q40, sequence (whole entry, looked up): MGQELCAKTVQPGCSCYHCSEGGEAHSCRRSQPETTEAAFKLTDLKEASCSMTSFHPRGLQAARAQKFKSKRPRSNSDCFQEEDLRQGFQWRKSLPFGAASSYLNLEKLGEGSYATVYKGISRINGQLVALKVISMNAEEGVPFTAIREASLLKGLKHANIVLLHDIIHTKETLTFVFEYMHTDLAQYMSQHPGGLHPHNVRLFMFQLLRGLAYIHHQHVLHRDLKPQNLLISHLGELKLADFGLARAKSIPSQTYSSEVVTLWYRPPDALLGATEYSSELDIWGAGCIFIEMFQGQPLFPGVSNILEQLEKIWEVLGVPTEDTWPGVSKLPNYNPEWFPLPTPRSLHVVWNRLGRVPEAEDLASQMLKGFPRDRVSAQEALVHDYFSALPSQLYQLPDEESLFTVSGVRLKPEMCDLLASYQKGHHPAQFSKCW

Block 1
Target: SRSF protein kinase 2 (SRPK2, Homo sapiens, UniProt P78362)
UniProt P78362, sequence (whole entry, looked up): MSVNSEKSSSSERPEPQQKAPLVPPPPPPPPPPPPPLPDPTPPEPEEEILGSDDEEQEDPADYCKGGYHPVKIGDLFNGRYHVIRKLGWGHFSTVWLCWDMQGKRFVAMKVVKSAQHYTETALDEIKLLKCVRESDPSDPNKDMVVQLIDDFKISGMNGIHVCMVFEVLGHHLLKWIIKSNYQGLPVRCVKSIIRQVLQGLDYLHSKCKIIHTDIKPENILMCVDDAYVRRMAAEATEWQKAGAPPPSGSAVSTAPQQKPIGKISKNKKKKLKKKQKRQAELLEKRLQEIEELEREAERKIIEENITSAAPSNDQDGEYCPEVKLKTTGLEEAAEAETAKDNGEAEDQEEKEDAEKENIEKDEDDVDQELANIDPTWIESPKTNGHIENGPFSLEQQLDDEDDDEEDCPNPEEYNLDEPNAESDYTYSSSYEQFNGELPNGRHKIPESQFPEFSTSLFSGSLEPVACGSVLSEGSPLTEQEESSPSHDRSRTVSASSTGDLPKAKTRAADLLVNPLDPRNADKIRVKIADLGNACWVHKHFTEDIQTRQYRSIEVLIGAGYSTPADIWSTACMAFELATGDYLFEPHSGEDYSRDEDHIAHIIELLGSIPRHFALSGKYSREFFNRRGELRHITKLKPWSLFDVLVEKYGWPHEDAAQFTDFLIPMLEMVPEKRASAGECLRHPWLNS
Effect on: enzyme activity
Mode: inhibitor
Tested at: 0.5 µM
Reference: control
| SMILES | remaining activity [%] |
| --- | --- |
| CCN(CC)C(=O)c1ccc(Nc2nc(OCC3CCCCC3)c3[nH]cnc3n2)cc1 | 87.8 |
| Nc1cccc(-c2cc3c(Oc4cccc(O)c4)ncnc3[nH]2)c1 | 99.1 |
| O=C(Nc1cccc(Nc2nccc(Nc3cccc(C(F)(F)F)c3)n2)c1)C1CC1 | 104 |
| O=C(NC(NC(=S)Nc1ccc(F)c([N+](=O)[O-])c1)C(Cl)(Cl)Cl)C(c1ccccc1)c1ccccc1 (stereo not shown) | 103 |
| CCN(CC)CCNC(=O)c1c(C)[nH]c(/C=C2\C(=O)Nc3ccc(Cl)cc32)c1C | 93.7 |
| COc1cc2ncnc(Nc3cccc(Cl)c3)c2cc1OC | 88.2 |
| O=C1C(Cl)=C(N2C(=O)CCC2=O)C(=O)c2ccccc21 | 100 |
| c1ccc(-c2cnc(Nc3ccc(OCCN4CCCC4)cc3)s2)cc1 | 103 |
| Cc1cn(-c2cc(NC(=O)c3ccc(C)c(Nc4nccc(-c5cccnc5)n4)c3)cc(C(F)(F)F)c2)cn1 | 102 |
| N#C/C(=C\c1ccc(O)c(O)c1)C(=O)NCc1ccccc1 | 96.6 |
| Cc1nc2cc3nc(-c4cccs4)cnc3cc2n1C | 104 |
| c1ccc(-c2[nH]ncc2-c2ccnc3ccccc23)nc1 | 97.2 |
| Cc1cc2ncc(-c3ccccc3)nc2cc1C | 95.3 |
| Cn1nc2c3c(cccc31)C(=O)c1ccccc1-2 | 97.2 |

Block 2
Target: Beta-1 adrenergic receptor (ADRB1, Homo sapiens, UniProt P08588)
UniProt P08588, sequence (whole entry, looked up): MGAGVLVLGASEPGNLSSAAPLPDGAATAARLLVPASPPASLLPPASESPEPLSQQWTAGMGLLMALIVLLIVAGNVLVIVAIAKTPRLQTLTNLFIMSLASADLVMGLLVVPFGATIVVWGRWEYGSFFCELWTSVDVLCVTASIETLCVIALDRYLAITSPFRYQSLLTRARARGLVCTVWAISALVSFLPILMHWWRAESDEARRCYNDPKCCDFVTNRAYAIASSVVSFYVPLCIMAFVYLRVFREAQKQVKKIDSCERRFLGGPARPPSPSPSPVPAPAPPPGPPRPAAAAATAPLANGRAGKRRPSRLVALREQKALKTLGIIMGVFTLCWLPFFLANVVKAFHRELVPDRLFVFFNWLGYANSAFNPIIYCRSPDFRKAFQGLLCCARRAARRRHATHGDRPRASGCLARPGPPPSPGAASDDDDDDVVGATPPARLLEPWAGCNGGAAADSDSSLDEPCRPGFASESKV
Mode: agonist
| Compound | EC50 [µM] |
| --- | --- |
| Ic1ccc(Nc2nc(NCCN3CCOCC3)nc(N3CCOCC3)n2)cc1 | ≥ 100 |
| Cc1ccccc1-n1nc(-c2c(-c3ccc(F)cc3)nn3c2NC[C@@H](CO)C3)ccc1=O | ≥ 100 |
| O=c1cc(-c2cnccn2)oc2c(-c3cn[nH]c3)nccc12 | ≥ 100 |
| COc1cc(CNCCC(C)C)ccc1OCC(O)CN1CCSCC1 (stereo not shown) | ≥ 100 |
| Cc1ccc2c(Cn3nnc(-c4cccc(Cl)c4)n3)cc(=O)oc2c1 | ≥ 100 |
| OC(c1cccc(C(F)(F)F)c1)c1nc(Nc2ccc(N3CCOCC3)cc2)n[nH]1 (stereo not shown) | ≥ 100 |
| O=C(Cc1ccccc1)Nc1ccc([C@@H](O)[C@H]2COCC(=O)N2Cc2ccccc2F)cc1 | ≥ 100 |
| Cc1cc(F)ccc1-c1n[nH]c2ncc(-c3ccccc3)nc12 | 39.8 |
| CN(c1ccccc1)c1cc(=O)c2ccnc(NCC3CCOCC3)c2o1 | ≥ 100 |
| CCN(CC)c1ccc(C(=C2C=CC(=[N+](CC)CC)C=C2)c2cc(S(=O)(=O)O)ccc2S(=O)(=O)[O-])cc1 | 25.1 |
| CN(C)CCNc1cc(-c2cccs2)nc2ccccc12 | ≥ 100 |
| CC(C)c1ccccc1Nc1nnc(-c2cc(-c3cccnc3)nc3ccccc23)s1 | ≥ 100 |
| COc1ccccc1N1CCC(N2C(=O)N3CCCC3(C)C2=O)C1 (stereo not shown) | ≥ 100 |

Block 3
Species: mouse
Matrix: microsomes or S9
Tested at: 2 µM
Time: 0.5 h
| SMILES | remaining compound [%] |
| --- | --- |
| CCN(CCCNc1nc(-c2ccccc2)no1)c1ccccc1 | 0.389 |
| NC(CC(=O)N1CCCCN1)Cc1ccccc1F (stereo not shown) | 46.6 |
| O=C1COc2ccc(-c3cc4ccccn4c3)cc2N1 | 0 |
| Cc1occc1C(=O)N1CCC2(CCc3nnc(C(C)C)n3CC2)CC1 | 81.5 |
| O=C(COc1ccccc1F)NC[C@H]1CC[C@H](c2ncc(Cl)cc2-c2ccncc2)CC1 | 0.195 |
| COc1ccc2c(c1)cc(C(=O)Nc1c(C)cccc1C)n2C | 3.57 |
| COC(=O)c1nc(C2CC(C(C)(C)C)=NO2)cc(N)c1Cl (stereo not shown) | 54.4 |
| CC(C)(C)Nc1nc(Cl)nc(NC(C)(C)CO)n1 | 26.4 |
| COc1cc(OC)c(OC)cc1CNC(C)(C)CC(C)(C)C | 25.7 |

Block 4
SMILES: CNC(=O)c1ccc(Nc2ncc(C(F)(F)F)c(NCc3nccnc3N(C)S(C)(=O)=O)n2)cc1
Technique: competition with immobilised ligand
| target | test | conditions | remaining binding |
| --- | --- | --- | --- |
| GAK (Homo sapiens, UniProt O14976) | cell-free assay | 0.1 µM | 69% |
| Tyrosine-protein kinase ABL1, phosphorylated (ABL1, Homo sapiens, UniProt P00519, T315I) | cell-free assay | 0.1 µM | 45% |
| KIT (Homo sapiens, UniProt P10721, D816V) | cell-free assay | 0.1 µM | 80% |
| BLK (Homo sapiens, UniProt P51451) | cell-free assay | 0.1 µM | 78% |
| MAP3K19 (Homo sapiens, UniProt Q56UN5) | binding | 1 µM | 1.7% |
| CILK1 (Homo sapiens, UniProt Q9UPZ9) | cell-free assay | 0.1 µM | 68% |
| STK32A (Homo sapiens, UniProt Q8WU08) | cell-free assay | 0.1 µM | 71% |
| PNCK (Homo sapiens, UniProt Q6P2M8) | cell-free assay | 0.1 µM | 100% |
| STK17B (Homo sapiens, UniProt O94768) | cell-free assay | 0.1 µM | 100% |
| Ribosomal protein S6 kinase alpha-5, C-terminal kinase domain (RPS6KA5, Homo sapiens, UniProt O75582) | cell-free assay | 0.1 µM | 80% |
| FGFR2 (Homo sapiens, UniProt P21802) | cell-free assay | 0.1 µM | 100% |
| CDK15 (Homo sapiens, UniProt Q96Q40) | cell-free assay | 0.1 µM | 67% |
| MAP3K15 (Homo sapiens, UniProt Q6ZN16) | cell-free assay | 0.1 µM | 95% |
| AKT3 (Homo sapiens, UniProt Q9Y243) | cell-free assay | 0.1 µM | 36% |
| MUSK (Homo sapiens, UniProt O15146) | cell-free assay | 0.1 µM | 100% |
| IRAK1 (Homo sapiens, UniProt P51617) | cell-free assay | 0.1 µM | 77% |
| CSNK2A1 (Homo sapiens, UniProt P68400) | cell-free assay | 0.1 µM | 61% |
| GRK7 (Homo sapiens, UniProt Q8WTQ7) | cell-free assay | 0.1 µM | 97% |
| Macrophage colony-stimulating factor 1 receptor, autoinhibited (CSF1R, Homo sapiens, UniProt P07333) | cell-free assay | 0.1 µM | 76% |
| EGFR (Homo sapiens, UniProt P00533) | cell-free assay | 0.1 µM | 88% |
| ALK (Homo sapiens, UniProt Q9UM73, L1196M) | cell-free assay | 0.1 µM | 85% |
| Tyrosine-protein kinase ABL1, phosphorylated (ABL1, Homo sapiens, UniProt P00519, E255K) | binding | 0.1 µM | 100% |
| DAPK1 (Homo sapiens, UniProt P53355) | cell-free assay | 0.1 µM | 82% |
| IKBKB (Homo sapiens, UniProt O14920) | cell-free assay | 0.1 µM | 100% |
| MAPK12 (Homo sapiens, UniProt P53778) | cell-free assay | 0.1 µM | 67% |

Some of these lines once more (block 1):
| SMILES | remaining activity [%] |
| --- | --- |
| Cn1nc2c3c(cccc31)C(=O)c1ccccc1-2 | 97.2 |
| Cc1cc2ncc(-c3ccccc3)nc2cc1C | 95.3 |
| CCN(CC)CCNC(=O)c1c(C)[nH]c(/C=C2\C(=O)Nc3ccc(Cl)cc32)c1C | 93.7 |
| c1ccc(-c2cnc(Nc3ccc(OCCN4CCCC4)cc3)s2)cc1 | 103 |
| O=C(NC(NC(=S)Nc1ccc(F)c([N+](=O)[O-])c1)C(Cl)(Cl)Cl)C(c1ccccc1)c1ccccc1 (stereo not shown) | 103 |
| O=C(Nc1cccc(Nc2nccc(Nc3cccc(C(F)(F)F)c3)n2)c1)C1CC1 | 104 |
